Measurements pooled from the literature.
Lines come from different studies, so protocols differ.
EGFR: Epidermal growth factor receptor (EGFR, Homo sapiens, UniProt P00533)
EGFR L858R: Epidermal growth factor receptor (EGFR, Homo sapiens, UniProt P00533, L858R)

| SMILES | target | assay | test system | conditions | how to read | quantity | value |
| --- | --- | --- | --- | --- | --- | --- | --- |
| COc1ccc(-c2nn(-c3ccc(S(C)(=O)=O)cc3)cc2C=N/N=c2\[nH]c(-c3ccc([N+](=O)[O-])cc3)cs2)cc1 | EGFR | kinase activity, inhibitor | – | 1 µM | – | inhibition | 68.4% |
| O=C(NC1CCC1)c1ccc2nc(-c3cccc(NS(=O)(=O)NCCN4CCCCC4)c3)cn2c1 | EGFR L858R | enzyme activity | – | 10 µM | – | remaining activity | 100% |
| C[C@@H](c1ccc(-n2cnc3c(N)ncnc32)cc1)N1CCc2nn(C)c(Cc3ccccc3)c2C1=O | Epidermal growth factor receptor (EGFR, Homo sapiens, UniProt P00533, del747-752/P753S) | KINOMEscan | – | 0.1 µM | reference: DMSO control | remaining binding | 78% |
| COc1cc(N2CCN(C)CC2)ccc1Nc1nc(N)n(C(=O)NCc2c(Cl)cccc2Cl)n1 | EGFR L858R | enzyme activity | – | 10 µM | reference: control | remaining activity | 7.4% |
| [2H]c1cc(C)c(NC(=O)c2cnc(Nc3cc(N4CCCCC4)nc(C)n3)s2)c(Cl)c1 | EGFR L858R | – | – | 0.01 µM | – | inhibition | < 30% |
| C=CC(=O)N1CCC(C(=O)NCC(=O)N2CCN(c3nc(-c4cnc(N)nc4C(F)F)nc(N4CCOCC4)n3)CC2)CC1 | Epidermal growth factor receptor (EGFR, Homo sapiens, UniProt P00533, L858R/T790M) | KINOMEscan | – | 1 µM | – | remaining binding | 97% |
| COc1cc(N2CCN(C)CC2)ccc1Nc1nc(N)n(C(=S)NCc2c(Cl)cccc2Cl)n1 | EGFR L858R | enzyme activity | – | 10 µM | reference: control | remaining activity | 0.6% |
| C=CC(=O)N1CCC(COCC(=O)N2CCN(c3nc(-c4cnc(N)nc4C(F)F)nc(N4CCOC[C@@H]4C)n3)CC2)CC1 | EGFR | KINOMEscan | – | 1 µM | reference: DMSO control | remaining binding | 89% |
| COc1ccc(-c2nn(-c3ccc(S(C)(=O)=O)cc3)cc2/C=N/N=c2\[nH]c(-c3ccc(Br)cc3)cs2)cc1 | EGFR L858R | kinase activity, inhibitor | – | 10 µM | – | inhibition | 89% |
| CCOc1cc(N2CCN(C)CC2)ccc1Nc1nc(N)n(C(=O)NCc2ccccc2S(=O)(=O)C(C)C)n1 | Epidermal growth factor receptor (EGFR, Homo sapiens, UniProt P00533, G719S) | enzyme activity | – | 10 µM | reference: control | remaining activity | 1.3% |
| CC(C)C[C@H](NC(=O)[C@H](CO)NC(=O)[C@H](CO)NC(=O)CNC(=O)[C@@H]1CCCN1C(=O)[C@H](Cc1ccc(O)cc1)NC(=O)[C@H](CC(C)C)NC(=O)[C@H](CO)NC(=O)[C@H](CS)NC(=O)[C@H](CC(C)C)NC(=O)[C@@H](N)CC(C)C)C(=O)O | Epidermal growth factor receptor, extracellular domain (EGFR, Homo sapiens, UniProt P00533) | binding, first site, surface plasmon resonance | immobilised soluble EGFR | model, binding, one to two | – | kon | 171 M⁻¹ s⁻¹ |
| CC(C)Cc1ccc(-c2nn(-c3ccc(S(C)(=O)=O)cc3)cc2/C=N/N=c2\[nH]c(-c3ccc([N+](=O)[O-])cc3)cs2)cc1 | EGFR | kinase activity, inhibitor | – | 1 µM | – | inhibition | 64.4% |
| COc1cc(N2CCN(C)CC2)ccc1Nc1nc(N)n(C(=O)NCc2ccccc2S(=O)(=O)C(C)C)n1 | EGFR | enzyme activity | – | 10 µM | reference: control | remaining activity | 10% |

For quick reference, copied from above:
| SMILES | target | assay | test system | conditions | how to read | quantity | value |
| --- | --- | --- | --- | --- | --- | --- | --- |
| COc1cc(N2CCN(C)CC2)ccc1Nc1nc(N)n(C(=O)NCc2c(Cl)cccc2Cl)n1 | EGFR L858R | enzyme activity | – | 10 µM | reference: control | remaining activity | 7.4% |
| [2H]c1cc(C)c(NC(=O)c2cnc(Nc3cc(N4CCCCC4)nc(C)n3)s2)c(Cl)c1 | EGFR L858R | – | – | 0.01 µM | – | inhibition | < 30% |
